Experimental data collected from several papers.
Each numbered part is a random draw from the data of one study; scales do not carry over between parts. Positions count from the first letter of the parent shown.

Sample 1 — target: MAFG, bZIP domain (human); method: DHFR protein complementation; medium: yeast; baseline: wild-type JUN-FOS pair; direction: higher = stronger binding
Setting: single substitutions, most at no-binding floor
Parent: JUN, bZIP domain (human); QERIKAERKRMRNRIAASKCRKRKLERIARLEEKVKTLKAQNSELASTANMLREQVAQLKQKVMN; partner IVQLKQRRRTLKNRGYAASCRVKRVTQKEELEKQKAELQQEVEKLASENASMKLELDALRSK
`V56Q` gave a binding fitness of -1.36 natural log.
With `A29Y` the binding fitness was -1.42 natural log.
The binding fitness of `L45W` is reported as -1.55 natural log.
`L52Y` has a binding fitness of -1.5 natural log.
For `T37M`, the binding fitness was -1.23 natural log.
`L52M` gave a binding fitness of -1.44 natural log.
For `E32T`, the binding fitness was -1.46 natural log.
`A46P` has a binding fitness of -1.49 natural log.
`V35N` has a binding fitness of -1.52 natural log.

Sample 2 — target: CCNA2, cyclin fold, Cln2 fusion (human); method: yeast growth competition, sequencing; medium: yeast; setting: strong parent motif; baseline: not given; direction: higher = stronger binding
Parent: CDC25A docking peptide (human); PPHRRRLLFACSP
For `PPHRRRLLFKCSP [A10K]`, “normalised enrichment score” read 2.52.
Under “normalised enrichment score”, `PPHRRRKLFACSP [L7K]` is recorded as 2.05.
For `PPHRRRLLFACQP [S12Q]`, “normalised enrichment score” read 1.91.
For `PLHRRRLLFACSP [P2L]`, “normalised enrichment score” read 1.72.
For `PPQRRRLLFACSP [H3Q]`, “normalised enrichment score” read 1.99.
`PPHRKRLLFACSP [R5K]`: “normalised enrichment score” 1.95.
`PPHRVRLLFACSP [R5V]` — result for “normalised enrichment score”: 1.71.
Under “normalised enrichment score”, `PPHRRSLLFACSP [R6S]` is recorded as 1.51.
Under “normalised enrichment score”, `PPHWRRLLFACSP [R4W]` is recorded as 1.75.
`IPHRRRLLFACSP [P1I]`: “normalised enrichment score” 2.66.
For `PPHRRRLLRACSP [F9R]`, “normalised enrichment score” read 1.7.
Under “normalised enrichment score”, `PPHRRRLLQACSP [F9Q]` is recorded as 0.515.
Under “normalised enrichment score”, `PNHRRRLLFACSP [P2N]` is recorded as 2.55.
`PPHRRRLLPACSP [F9P]`: “normalised enrichment score” 0.411.
`PPHRRRLLFAKSP [C11K]`: “normalised enrichment score” 1.95.
`VPHRRRLLFACSP [P1V]` — result for “normalised enrichment score”: 1.59.
For `PPHRRKLLFACSP [R6K]`, “normalised enrichment score” read 2.24.
`PPHRRRLLFDCSP [A10D]` — result for “normalised enrichment score”: 4.43.

Sample 3 — method: protein-binding microarray; molecule type: double-stranded DNA, one strand shown; medium: in vitro; tested at: not given; direction: higher = stronger binding
Target: Max-binding protein MNT, bHLH-zipper, MAX partner unstated (MNT, Homo sapiens, UniProt Q99583, residues 220-300)
Setting: k-mer, scored over probes, only values ≥0.25
Residues (chain): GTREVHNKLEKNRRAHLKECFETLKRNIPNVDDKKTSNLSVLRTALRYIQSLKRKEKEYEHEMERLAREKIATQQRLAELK
With `AGCATGCG` the E-score was 0.438.
For `ACGCTACA`, the E-score was 0.251.
The E-score of `CCACGCCA` is reported as 0.348.
For `ACACGCGC`, the E-score was 0.446.
For `ATGACATG`, the E-score was 0.303.
`ATCACACG` has an E-score of 0.36.
For `ACACGTCC`, the E-score was 0.254.
The E-score of `ACGCGACC` is reported as 0.27.
With `ACGCACGG` the E-score was 0.253.
`CGTGCGAA` gave an E-score of 0.367.
The E-score of `CGTGACCC` is reported as 0.375.
`CATGCGGA` gave an E-score of 0.426.
`CAGCCACG` gave an E-score of 0.278.
With `ACGCGTCG` the E-score was 0.326.
The E-score of `CTACATGC` is reported as 0.293.
`CACACGCC` gave an E-score of 0.317.
For `CGTGCGGA`, the E-score was 0.343.
`ACGCCCCG` has an E-score of 0.274.

Other studies, line by line
`PhoQ, residues 284 288 289 292 302 303 SSTMSV` has a fold induction of 9.96 (PhoP, residues 12 14 15 18 19 AQALL (Escherichia coli, UniProt P23836); Sort-seq, refers to: YFP reporter; E. coli; PhoQ-PhoP variant library, together with: 10 µM Mg2+; baseline: high Mg2+ state, higher = stronger signaling).

Excerpt of the above (sample 3):
`CAGCCACG` gave an E-score of 0.278.
For `ACGCTACA`, the E-score was 0.251.
The E-score of `CCACGCCA` is reported as 0.348.
With `ACGCGTCG` the E-score was 0.326.
